Results of several laboratories.
Each numbered part is a random draw from the data of one study; scales do not carry over between parts.

Study 1
Target: Interferon regulatory factor 7, full length, phosphomimetic (IRF7, Homo sapiens, UniProt Q92985, residues 1-503, S471D/S472D/S475D/S476D/S477D/S483D/S484D/S487D)
Technique: protein-binding microarray
Molecule type: double-stranded DNA, one strand shown
Matrix: in vitro
Concentration: 2200 nM top
Setting: 60-bp whole probe
With: salmon DNA 0.4 mg/ml
Baseline: random background probes
Direction: higher = stronger binding
Constant ends, left off below: GCCTAGCAC … GTCTTGATTCGCTTGACGCTGCTG
Construct (chain): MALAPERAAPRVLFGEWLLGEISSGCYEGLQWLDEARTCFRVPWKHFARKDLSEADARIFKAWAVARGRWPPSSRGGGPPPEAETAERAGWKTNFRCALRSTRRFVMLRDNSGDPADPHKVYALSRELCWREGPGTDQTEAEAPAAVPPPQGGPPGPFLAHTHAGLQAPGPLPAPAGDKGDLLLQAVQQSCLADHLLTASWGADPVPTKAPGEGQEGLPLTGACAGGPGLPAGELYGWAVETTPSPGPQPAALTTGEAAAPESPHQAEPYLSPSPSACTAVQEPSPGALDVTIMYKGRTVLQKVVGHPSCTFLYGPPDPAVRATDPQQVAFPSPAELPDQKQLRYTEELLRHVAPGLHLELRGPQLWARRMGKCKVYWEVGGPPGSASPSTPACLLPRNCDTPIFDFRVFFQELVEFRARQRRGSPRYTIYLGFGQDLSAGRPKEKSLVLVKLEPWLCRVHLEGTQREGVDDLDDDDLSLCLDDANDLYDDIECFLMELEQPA
Strand	fitted relative affinity [z-score]
TTAGGATTCGGGTTTCGGTTAGTGCTA	4.96
GTAGGTATCCTTTTCCTTTAGTGCTAG	1.71
GACGGACTGAGGACTGGGGACGTGCTA	-0.958
TTGGATCTCAGTCTCGATTAGTGCTAG	0.753
TTAGGACTGGAGACTGGGTTAGTGCTA	-0.865
TCAAGTTTTACTTTCTAACTGTGCTAG	2.63
TCAGGACTGGGGTATCGGTTAGTGCTA	-0.557
GACCATATCAGTTTCGAGACGTGCTAG	4.04
GACGGTTTCGGTATCGGGTCGTGCTAG	8.86
TCATGTCTGTGTCACAGACTGTGCTAG	0.816
TCATGTATATATGTGTAACTGTGCTAG	0.924
TTAGGACTGGGACTGGGCTAGTGCTAG	-1.15
GACGGTCTCTTTCTCCTGACGTGCTAG	1.35
GACGGTTTCGAGTATCGGGACGTGCTA	3.61
CTAGAACTGGGGACTGGATTAGTGCTA	-0.5
GACGATTTCCGTTTCGAGACGTGCTAG	5.14
GTAGATTTCGGGTATCGATTAGTGCTA	2.83
TTAGAACTGAGACTTGATTAGTGCTAG	-0.919
GACGGACTGGGTATCGGGGCGTGCTAG	-0.816
TCATCTCTGCTCTTTTCAACTGTGCTA	1.7
TTAGGCCTCGGACTGGGTTAGTGCTAG	-0.846

Study 2
Target: RING finger protein unkempt homolog, zinc fingers 1-6, GST-SBP tag (UNK, Homo sapiens, UniProt Q9C0B0, residues 30-357)
Technique: RNA Bind-n-Seq
Molecule type: RNA
Matrix: in vitro
Concentration: not given
Setting: RNA with constant flanks, ends assumed
Baseline: input RNA pool
Direction: higher = stronger binding
Target sequence (chain): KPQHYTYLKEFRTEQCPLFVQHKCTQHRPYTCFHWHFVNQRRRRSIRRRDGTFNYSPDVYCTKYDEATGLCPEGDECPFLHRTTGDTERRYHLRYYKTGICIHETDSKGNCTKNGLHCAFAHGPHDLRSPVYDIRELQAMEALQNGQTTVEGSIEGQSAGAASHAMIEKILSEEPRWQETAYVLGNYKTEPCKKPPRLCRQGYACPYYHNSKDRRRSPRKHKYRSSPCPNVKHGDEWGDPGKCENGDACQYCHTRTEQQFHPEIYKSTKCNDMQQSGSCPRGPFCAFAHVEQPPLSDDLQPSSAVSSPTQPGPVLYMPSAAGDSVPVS
Strand	bound/input enrichment [ratio]
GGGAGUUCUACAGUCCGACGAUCGAAGCUACAUACCCAAAUACAUAUAUUUUUGACUUAUUUGGAGGUGUUGAUCUUCUUGCCGAAAUUCUUAUGAGGCCUACCAUCUCUAUCCGGGGACAGAAACUAAAAAUAAGUGACGAGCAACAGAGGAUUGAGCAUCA	0.35
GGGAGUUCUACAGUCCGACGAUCGGCUCCCCUUCCAAUGAGCUGGUGUCUGGAGGAUCUGACAAUCGGGUGAUUCAUUGGGAACCCGAGAAUAAUCAGGUUUUAAAAUCAGUCCGUCUCCAAGGCCAUGAAGGACCUGUUUGUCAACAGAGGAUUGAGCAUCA	0.197
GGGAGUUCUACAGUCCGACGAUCCGGGAUGACCAGACUCCCGGACUCCUCAGGCAGUGCCCUUUCCUCCCACUUUUCCUCCCCCACCGCCACAGGCCUCUGCUCCUGCUCCUGCCUGCAUGUUCUCUCUGUUGUUGGAGCCUGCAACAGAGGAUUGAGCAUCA	0.876
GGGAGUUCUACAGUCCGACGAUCGAGAAUCCAUAUGACCUUGAUGCUUGGAGCAUUCUCAUUCGAGAGGCACAGAAUCAACCUACCGACAAAGCACGGAAGACUUAUGAACGCCUUGUUGCCCAGUUCCCCAGUUCUGGCAGACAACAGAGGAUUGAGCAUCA	0.17
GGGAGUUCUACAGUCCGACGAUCAACCUCUGCAAGCUCAUGAAAGAAAUCUUAGAUAAGAAGGUUGAGAAGGUGACAAUCUCCAACCGACUUGUGUCUUCACCUUGCUGCAUUGUGACCAGCACCUACGGCUGGACAGCCAAUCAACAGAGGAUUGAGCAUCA	0.16
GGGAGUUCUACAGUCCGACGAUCCAUUUGUAUUGUACAUAAAAUUUUCUAGAAAUACACUUUUUUCCAAAGUGUAAGUUUGUGAACCGAUUUUAGCAUGAUGAAACUGUCAUAAUGGUGAAUGUUCAAUCUGUGUAAGAAAACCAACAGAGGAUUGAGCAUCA	0.792
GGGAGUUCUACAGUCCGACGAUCAUGAAAAGACUAAUUGGAUGAAGACUCUCUCUCUGUAAUGAGUUUGUUGUUAAAUAUACAGCCGUUAUGGAAUGAAAAUGAAUACUUUGUCCCAGGCUCCUGGAUACGUUGCAUUUGGCUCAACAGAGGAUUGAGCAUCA	0.0683
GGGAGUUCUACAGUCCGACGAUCUCUCGCUCUCCUUUUUUUUUUCUUUUUUUCUUUUUCUUUUUUUUUUCUUUUUUUAAAUACCCGCAACUUUCAUCCUUUGGAACUUGUGCUGAAAAAAGAAGAGUCAGCAAAUACUACUGACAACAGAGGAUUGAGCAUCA	0.713
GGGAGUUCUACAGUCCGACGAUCGAAGAAUUAGAUGCCUUGUUAAACAAUUUCUGUGAACUCUCAGCUCCAGGAGGUGUGGAAAACCGUUAUGGGAAAAUAAAUAUCCUACUUCAAACCUACAUCAGCCGAGGAGAGAUGGACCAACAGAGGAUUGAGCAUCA	0.871
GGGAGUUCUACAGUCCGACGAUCAACAUUACUGUGCUAAGGAGCCAGUGUGAUGCUGCUUCCCAGACGGUUACUGGUCAUCAUUCCGAAACCCAUGAUUUAAAGAUUCUCAUUAGCUCUGGACAGCAGAAGUCAUUGGCUAAACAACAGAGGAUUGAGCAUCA	0.066
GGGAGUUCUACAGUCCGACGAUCAAAGCAAUUGAGCAGGCCGAUCUCCUGCAGGAGGAUGCAAAAGAAGCUGAAACCCCACGCCGUGUUCUUGAAGAAAUUGGACUGACAUAACUGUCCUCCCUUGCUGAUGACUUCUUGUGGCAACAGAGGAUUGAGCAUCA	0.148

Study 3
Target: Fragile X messenger ribonucleoprotein 1, C-terminal low-complexity region (Fmr1, Mus musculus, UniProt P35922)
Technique: RNA Bind-n-Seq
Molecule type: RNA
Matrix: in vitro
Concentration: 200 nM
Setting: whole 134-nt RNA, ends assumed
With: 150 mM KCl
Baseline: input library
Direction: higher = stronger binding
Strand	log2 enrichment
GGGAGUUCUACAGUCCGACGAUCCACAGACAACACGCACAAACACAGACACAGAGGGAAGGGGUUGGGAUGGGGACAGGGUGCACAGCAGGGCGGGGUAGGACCCCAGCCCCUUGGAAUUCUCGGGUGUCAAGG	1.15
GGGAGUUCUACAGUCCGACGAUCAAGUCCUGUGCUACACAUCGUAUGUACCGAAUCGGGGUGGGGUUUGGGGUUUGGGGAAAGUAUUAUGUUACGCCGUUCGGAUCUGCACUUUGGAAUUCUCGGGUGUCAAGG	1.7
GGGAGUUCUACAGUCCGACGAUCCACAGACAACACGCACCCACACAGACACAGAGGGAAGGGGUUGGGAUGGGGACACGGUGCACAGCAGGGCGGGGUAGGACCCCAGCCCCUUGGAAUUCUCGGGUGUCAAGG	1.3
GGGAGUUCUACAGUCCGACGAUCGUCCUGUGCUACACAUCGUAUGUACCGAAUCGGAAAAAAAGGAAAAAGGAAAAAAAGGAAAGUAUUAUGUUACGCCGUUCGGAUCUGCACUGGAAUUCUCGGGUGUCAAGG	-0.718
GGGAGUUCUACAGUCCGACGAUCUGGCCCUGGUGGCAUGCGGGGAGGAAGAGGUGGCCUCAUGGAUCGUGGUGGUCCCGGUGGAAUGUUCAGAGGUGGCCGUGGUGUAGACAGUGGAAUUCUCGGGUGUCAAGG	0.13
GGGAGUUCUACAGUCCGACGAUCGUCCUGUGCUACACAUCGUAUGUACCGAAUCGGCCCCCCGGCCCCCCGGCCCCCCGGGAAAGUAUUAUGUUACGCCGUUCGGAUCUGCACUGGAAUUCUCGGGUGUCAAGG	0.193
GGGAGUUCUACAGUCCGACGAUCUCAAGUCCUGUGCUACACAUCGUAUGUACCGAAUCGGGCCGGGGCCGGGCCGGGGAAAGUAUUAUGUUACGCCGUUCGGAUCUGCACUUCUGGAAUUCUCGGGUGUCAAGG	0.321
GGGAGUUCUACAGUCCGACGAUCCACAGACAACACGCACCCACACAGACACAGAGGGAAGGGGUUGGGAUGGGGACAGGGUGCACAGCAGGGCGGGAAAGGACCCCAGCCCCUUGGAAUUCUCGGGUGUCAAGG	1.31
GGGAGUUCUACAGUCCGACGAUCAGUCCUGUGCUACACAUCGUAUGUACCGAAUCGGGGAAAAAGGGGAAAGGGGAGGGGAAAGUAUUAUGUUACGCCGUUCGGAUCUGCACUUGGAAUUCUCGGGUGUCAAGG	0.331
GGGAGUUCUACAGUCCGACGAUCUAACUUUAGAGGAGGAUCUGAAGGAUAUGGCAGUGGACGUGGAUUUGGGGAUGGCUAUAAUGGGUAUGGAGGAGGACCUGGAGGUGGCAAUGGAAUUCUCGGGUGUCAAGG	0.288

Study 4
Target: RNA binding protein fox-1 homolog 2, RRM domain, GST-SBP tag (RBFOX2, Homo sapiens, UniProt O43251-10, residues 100-194)
Technique: RNA Bind-n-Seq
Molecule type: RNA
Matrix: in vitro
Concentration: 365 nM
Setting: natural RNA segment, single round, ends assumed
Baseline: no-protein control
Direction: higher = stronger binding
Target sequence (chain): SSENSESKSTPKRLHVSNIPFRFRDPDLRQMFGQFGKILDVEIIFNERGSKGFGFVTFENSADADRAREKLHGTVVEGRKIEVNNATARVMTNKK
Strand	RBNS enrichment (R)
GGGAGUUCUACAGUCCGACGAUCUAAAAUGCUCCCUGUGAGUUUGCAAGCUCUGAAAACAACACCGCUGUGUGCUCAUUCUUAGAGUGAAGACCCUGAAAGGUAUCCCUUUGCAGCCUGUCUCCUGUUUUGAGUGGAAUUCUCGGGUGCCAA	0.305
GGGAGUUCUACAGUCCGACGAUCUAUGCUCAAGAUACUGAAGCUAUCUGUGGUAUUUCAUGUAACAUUUCUAAGAAUAAGAGCUGGCAAAUGGGAAACUUGGGGUGGAGAGAGCAUACUUAUUGGGCUGUGAAUGGAAUUCUCGGGUGCCAA	0.641
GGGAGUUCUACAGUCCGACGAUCAUGGCUGGACGCUGGCCAAGCCUGUGCCUGCUGCUCACGCACUCACCACAACCACCUGUCCACCCCUUCCUUCCCCACCACUGUCGCUCACCCUGACAUAUGCCCACAUCUGGAAUUCUCGGGUGCCAA	0.751
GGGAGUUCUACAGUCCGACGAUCAUGCUCUGCUGGAGUGUUGGCCUCACCCCAGUCCCCUUGCCAGCAACAUCACUGCCCUUGGACGAGACUCAGUGGAAGACACUUCCCCUCGGACCCGUUCCCAGGAGGUGUGGAAUUCUCGGGUGCCAA	0.232
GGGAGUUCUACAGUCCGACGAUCGCAUAACCCACGUUUGUAUAAAUUAUUGAAAUCCAUUUUCACCUAAGAAUGGACUUAAGAAGUACUGCUGGGCAAGUGUGCUGAAAGUACAUUAACUGCUCAAAUACAAGUGGAAUUCUCGGGUGCCAA	1.13
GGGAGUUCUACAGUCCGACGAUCAAUUUAUUUUAUUAAAAUAACAUAAGGAACCAACUGUAUUGGCUCAAUAAAAACAAAAUUAAAACCCAAAAUCAUUAAGAAAACCUGUAUUCCUGGCUUUCUUACAGACAUGGAAUUCUCGGGUGCCAA	0.421
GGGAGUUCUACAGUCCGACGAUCAGUGACCGGCUGCUUUUCCCUAAGCCAAGGGCCUCUUGCGGUCCCUUCUUACUCACACACAAAAUGUACCCAGUAUUCUAGGUAGUGCCCUAUUUUACAAUUGUAAAACUUGGAAUUCUCGGGUGCCAA	0.409
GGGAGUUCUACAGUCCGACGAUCGAUUGCAGUAGCCCAUUGGUUGUUCAUAUAUUUAAAUAAAAUGGUCUACAAACUAUUUUUCAAACAAUAAGGACUAUCUUGGGAUAUCUGAGCUGCUUGGGGAGGGUGUGUGGAAUUCUCGGGUGCCAA	0.523
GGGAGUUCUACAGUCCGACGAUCCUGCUUGGAGAAGGCCCAGGGGUGUCCUCAUGGGGACUUCUGGAACAGACAGCCUUCUGACCCCUGUGCGUCUGCCACGUGCUGGGUGUGCCUUACUCAUAGGGCUCAGGUGGAAUUCUCGGGUGCCAA	0.499

Some of these lines once more (study 1):
Strand	fitted relative affinity [z-score]
GACGGACTGGGTATCGGGGCGTGCTAG	-0.816
CTAGAACTGGGGACTGGATTAGTGCTA	-0.5
TCATGTATATATGTGTAACTGTGCTAG	0.924
TTAGGACTGGGACTGGGCTAGTGCTAG	-1.15
TTAGGCCTCGGACTGGGTTAGTGCTAG	-0.846
